Published values collected from several papers.
Every numbered part comes from another study and shows a few of its results, in no order.

Study 1
Target: TAR DNA-binding protein 43, full length, His tag (TARDBP, Homo sapiens, UniProt Q13148, residues 1-414)
Method: RNA Bind-n-Seq
Form: RNA
Sample: in vitro
Tested at: 20 nM
Setting: 6-mer, flanks averaged, single round
Added: 150 mM LiCl
Baseline: input library
Direction: higher = stronger binding
Sequence | 6-mer enrichment (R)
UCGUGG | 1.02
GACUUA | 0.878
CCCGUU | 1.01
GGCCUU | 1.09
UUUAUA | 1.12
CGAACA | 0.788
UGUCAA | 0.896
AACGGC | 0.851
GGUCGA | 0.973
AUCCCU | 0.983
GACGUA | 0.912
GCGGAG | 1.12
AAUAGU | 0.969
GAUGUC | 0.939
AAGACA | 0.797
CCUACA | 0.867
AACGCG | 0.893
CUCAGA | 0.779
AGGUAC | 0.875
AGCGAC | 0.837
UGCGCC | 1.03
CCAGAC | 0.833
AUGAAC | 0.881
CUUAAU | 0.935
GGCAUG | 1.08

Study 2
Target: Sox, HMG box (Pigoraptor chileana)
Method: Spec-seq
Form: double-stranded DNA, one strand shown
Sample: in vitro
Tested at: not given
Setting: whole probe, mean of replicates
Baseline: not given
Direction: lower = stronger binding
All sequences stand within: GAGTCGTCTCGTCAGCAC … CCGTAGAGCACTCAGGTC
Residues (chain): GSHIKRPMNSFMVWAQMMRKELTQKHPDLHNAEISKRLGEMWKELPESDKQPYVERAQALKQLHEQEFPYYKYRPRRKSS
Sequence | relative binding energy [ln ratio]
ATGAGTT | 0.188
TGTTGTT | -2.06
AAATGTT | -1.34
AGACGTT | -0.273
AGAGGTT | -0.21
CCACGTT | 0.88
CGTTGTT | -1.84
CATATTT | 0.39
CATACTT | 0.0873
AGCAGTT | 0.0796
CATAACC | 0.248
TGCCGTT | 0.908
CGGTGTT | 0.665
GTTAGTT | 0.717
GGTCGTT | 1.31
AACTGTT | -1.9
CATTGTT | -3.09
CATGAGT | 0.615
CCTCGTT | 0.722
CATCGTC | 0.628
CATTGGC | 0.0376
GCGGGTT | 1.48
GTCTGTT | -1.1

Study 3
Target: Fragile X messenger ribonucleoprotein 1, C-terminal low-complexity region (Fmr1, Mus musculus, UniProt P35922)
Method: RNA Bind-n-Seq
Form: RNA
Sample: in vitro
Tested at: 200 nM
Setting: whole 134-nt RNA, ends assumed
Added: 150 mM KCl
Baseline: input library
Direction: higher = stronger binding
All sequences stand within: GGGAGUUCUACAGUCCGACGAUC … UGGAAUUCUCGGGUGUCAAGG
Sequence | log2 enrichment
ACCAUGCAGGUGGGCAUCUUUGCGAAGUGGGGCAAGGGGGGGAUAGGGAGGGGGGUAACACUUUGGGAACAGGUGGUCCCAGGUCGUUUC | 1.2
UUGCUGUCACCCGCUGCCUGUCUGCAGGAUCCCGGAUUCCGUAUCAGGGGACCGAAAUUAGUCGGAAAAUAGGAAGCAGGUGCUCGCUUG | -1.62
GGAAGGGGGCUUGCGCCACGGCAGUGAAUCUUCAUGGAUCUUCAUGCAGCCAUACAAACCCUGGUUCCAACAGAAUGGUGAAUUUUCGAC | -1.25
CAAGUCCUGUGCUACACAUCGUAUGUACCGAAUCGGGCCCGGGGCCCGGCCCGGGAAAGUAUUAUGUUACGCCGUUCGGAUCUGCACUUC | -0.836
UCUAACUAAUUUUUCUUUGUUUUUUAACAGGAGAGGAGAUACUUACCCUUAAGUCAAGCCAGAAAAAGUGGUUUCCAAAUGGAUUGGCUG | -1.1
CCUCAAGUCCUGUGCUACACAUCGUAUGUACCGAAUCGGGUGGUGGGUGGGGAAAGUAUUAUGUUACGCCGUUCGGAUCUGCACUUCCAG | 1.17
CCUCAAGUCCUGUGCUACACAUCGUAUGUACCGAAUCGGGGAGGGAGGAGGGGAAAGUAUUAUGUUACGCCGUUCGGAUCUGCACUUCCA | 1.2
UUGUGGCUGAGAGACAGUUUGCAAAGGAACAACAUACAGAUGGGACACUAAAGGAAGUUGGAGAAGAUUAUCAAAUCGCAAUCCCAGAUU | 0.242
CCUGUGCUACACAUCGUAUGUACCGAAUCGGGGCCCCCGGGGCCCCCGGGGCCCCCGGGGAAAGUAUUAUGUUACGCCGUUCGGAUCUGC | -0.849
CUGUGCUACACAUCGUAUGUACCGAAUCGGAAAAAAAGGGAAAAAAAGGGGAAAAAAAGGGGAAAGUAUUAUGUUACGCCGUUCGGAUCU | -0.307
UGGCCCUGGUGGCAUGCGGGGAGGAAGAGGUGGCCUCAUGGAUCGUGGUGGCCCCGGUGGAAUGUUCAGAGGUGGCCGUGGUGGAGACAG | 0.00528
UAACUUUAGAGGAGGAUCUGAUGGAUAUGGCAGUGGACGUGGAUUAGGGGAUGGCUAUAAUGGGUAUGGAGGAGGACCUGGAGGUGGCAA | 0.257
CAGCAGUGAGUCUCUUCAGAAAACCCUUUUCUACAGUUAGGGUUGAGUUACUUCCUAUCAAGCCAGUACGUGCUAACAGGCUCAAUAUUC | -0.648
UCCUGUGCUACACAUCGUAUGUACCGAAUCGGGGAAAGGGGUUUUUGGGGAAAAAGGGGAAAGUAUUAUGUUACGCCGUUCGGAUCUGCA | 0.565

Study 4
Target: RNA binding protein fox-1 homolog 2, RRM domain, GST-SBP tag (RBFOX2, Homo sapiens, UniProt O43251-10, residues 100-194)
Method: RNA Bind-n-Seq
Form: RNA
Sample: in vitro
Tested at: 365 nM
Setting: natural RNA segment, single round, ends assumed
Baseline: no-protein control
Direction: higher = stronger binding
All sequences stand within: GGGAGUUCUACAGUCCGACGAUC … UGGAAUUCUCGGGUGCCAA
Construct (chain): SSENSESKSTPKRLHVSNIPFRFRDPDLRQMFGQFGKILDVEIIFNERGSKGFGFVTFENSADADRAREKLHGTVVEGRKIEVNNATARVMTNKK
Sequence | RBNS enrichment (R)
CCUGUGAAGUGACAGGUGUGGACCCUGAGGGUGCGGUGGUGAGCACACUGUCUCCUGCUGGCAUUCACCCCACUCAUGCUGGAAAGGAAGAUCCAGAUCGUACAAAAAUU | 0.445
AUGCUGAAUAUAAUGUGAAUAGCAAAAUCUGGUAUGUUGUGACUAAGGCUUAAGAGUGCCUGUUUCUGACAAUAAAAUGUUCCAAUAUUAAUGAACAGUGCCAAAUACAC | 0.766
GAUUUUUAUUUUAAUAUUAUUUGUGUCUGUGUAUAUAUUUGUAUAUAAAUUUUAUGAACCCCAGGCAUACUGCUUGUUUUUUUAAAAAAAAAUAAAACUCAAAAUUGAUC | 4.08
UCUAACAACUCAAAUUUUGCUUUUUGAAGCUGUAUUUUUAAGUUAAGAAAAUAUAUUUUUGGUAUAACUUUUAUGAGAAAAAUAAAAUAUAUUCUGGUCCAAACUUCUAA | 0.635
UUGCCUUUGGUCCUCUUGGACAGAGAGCAGGCUCAGGCCAUUGACAUCACAGUUCUUCCUUUUAACUCUAGUGACCCGGGGUCCGAGUUGCCCCUAUGCUUCCAGGGCAA | 0.384
CCUGGUUCCCUGGGACAGCAGGAUCCCCUCCUCAAAGCAGCCAGAGUUUACUGAACACCAAGGAAGAAGUGAGACCUCAGUGACUGUUCUCGUGCCAAGAAGCCCUGGGC | 0.291
UUGUGUGGAAAGUCAGAGGAAAAAUGAUCCAGUGGACACUUGGGGAUUAUCUGUCAUUCAAGAUCCUUCCUUCAACCCCAAGGUCAGCUCCCAUCUCAUUUCCAGAAAGG | 0.346
AAUUUGUCUCCUAUUCUUAAGUACUUCUGCAAGGUAUUAGAUGCUGCUCCUUACCAAAAAUCAGUCUUCUAGCAAAUAAAAAUAACUUAGAGCAUUAUUUAUUUAAAGAA | 0.539
CUUGAAAGCAUCUGUUUGAGGGAAAGGUCUCUGGGCAAGCAAGUGGUUAUUUGGAUUGCUUGCUUCCCUUUUUCCACCUGGGACAUUGUAAUCAUAAAAUAACAGUAAAU | 0.336
AUAUUUUUUAAACCGAAAUCUGUGGAUGAAAUAGAAGCUGGAGCCCUCCUCUUGGAAUAUUCAGCCUAAGAACCUCAUAGGACUAUGAAUUCACCCGAAAUUCUCAUUUG | 0.204
UUAAAGUGUCAGACUAAAUUUUUAGAAGAAAACAGAAAUUCAGGUGUGUGUUCAUUAUAGGUUAUUCAGCAAAGUGGACCCUGACAGUUUCUCGGUUUCCCCAGUGCUGA | 0.75
UAUGAAAGACAGCACCUCACUGCUCCUGCAGACACAAGGGCCACCGGGGAGUUCCUGAAAGACUAGUUAGGGACAUUUGCUCAUCUCCUUCUGAGGCCAUCUGCAGAAAG | 0.411

Some of these lines once more (study 3):
Sequence | log2 enrichment
GGAAGGGGGCUUGCGCCACGGCAGUGAAUCUUCAUGGAUCUUCAUGCAGCCAUACAAACCCUGGUUCCAACAGAAUGGUGAAUUUUCGAC | -1.25
CAAGUCCUGUGCUACACAUCGUAUGUACCGAAUCGGGCCCGGGGCCCGGCCCGGGAAAGUAUUAUGUUACGCCGUUCGGAUCUGCACUUC | -0.836
UCUAACUAAUUUUUCUUUGUUUUUUAACAGGAGAGGAGAUACUUACCCUUAAGUCAAGCCAGAAAAAGUGGUUUCCAAAUGGAUUGGCUG | -1.1
CCUCAAGUCCUGUGCUACACAUCGUAUGUACCGAAUCGGGUGGUGGGUGGGGAAAGUAUUAUGUUACGCCGUUCGGAUCUGCACUUCCAG | 1.17
CCUCAAGUCCUGUGCUACACAUCGUAUGUACCGAAUCGGGGAGGGAGGAGGGGAAAGUAUUAUGUUACGCCGUUCGGAUCUGCACUUCCA | 1.2
UUGUGGCUGAGAGACAGUUUGCAAAGGAACAACAUACAGAUGGGACACUAAAGGAAGUUGGAGAAGAUUAUCAAAUCGCAAUCCCAGAUU | 0.242
CCUGUGCUACACAUCGUAUGUACCGAAUCGGGGCCCCCGGGGCCCCCGGGGCCCCCGGGGAAAGUAUUAUGUUACGCCGUUCGGAUCUGC | -0.849
CUGUGCUACACAUCGUAUGUACCGAAUCGGAAAAAAAGGGAAAAAAAGGGGAAAAAAAGGGGAAAGUAUUAUGUUACGCCGUUCGGAUCU | -0.307
UGGCCCUGGUGGCAUGCGGGGAGGAAGAGGUGGCCUCAUGGAUCGUGGUGGCCCCGGUGGAAUGUUCAGAGGUGGCCGUGGUGGAGACAG | 0.00528
UAACUUUAGAGGAGGAUCUGAUGGAUAUGGCAGUGGACGUGGAUUAGGGGAUGGCUAUAAUGGGUAUGGAGGAGGACCUGGAGGUGGCAA | 0.257
